# Measured values of several laboratories.
# A part holds a random share of what one study measured. Values joined by “and” are separate records of one study, mostly repeats; a detail may differ.
# Sequence of UniProt Q9NRH2 (whole entry, looked up): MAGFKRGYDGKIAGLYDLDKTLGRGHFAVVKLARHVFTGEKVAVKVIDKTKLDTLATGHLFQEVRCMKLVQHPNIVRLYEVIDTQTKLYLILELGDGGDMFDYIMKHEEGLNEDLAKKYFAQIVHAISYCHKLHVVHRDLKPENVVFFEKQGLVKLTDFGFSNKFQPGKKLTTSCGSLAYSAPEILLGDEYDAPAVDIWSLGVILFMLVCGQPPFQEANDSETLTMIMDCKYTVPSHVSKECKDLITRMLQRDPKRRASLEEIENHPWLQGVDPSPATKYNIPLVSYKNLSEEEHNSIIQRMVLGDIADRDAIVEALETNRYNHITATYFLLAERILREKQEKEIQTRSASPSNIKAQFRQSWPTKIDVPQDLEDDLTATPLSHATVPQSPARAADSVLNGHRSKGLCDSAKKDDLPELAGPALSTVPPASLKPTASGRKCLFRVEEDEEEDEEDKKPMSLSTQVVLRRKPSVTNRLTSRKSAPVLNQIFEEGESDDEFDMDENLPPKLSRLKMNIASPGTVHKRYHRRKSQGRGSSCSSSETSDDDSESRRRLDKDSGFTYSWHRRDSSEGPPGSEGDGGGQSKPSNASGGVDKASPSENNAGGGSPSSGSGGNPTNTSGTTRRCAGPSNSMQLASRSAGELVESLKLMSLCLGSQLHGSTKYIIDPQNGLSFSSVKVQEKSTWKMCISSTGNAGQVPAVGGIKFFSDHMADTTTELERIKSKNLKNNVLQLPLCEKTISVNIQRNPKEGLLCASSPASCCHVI

# Sample 1
# SMILES: O=C(Nc1ccc(Oc2ccc(F)cc2)cc1)N1CCc2ncccc2[C@H]1c1ccc(F)cc1
# Observed: cell-free assay
# Technique: competition with immobilised ligand
# Concentration: 1 µM
target,remaining binding [%]
"Tyrosine-protein kinase ABL1, non-phosphorylated (ABL1, Homo sapiens, UniProt P00519)",100
"SNRK (Homo sapiens, UniProt Q9NRH2)",90
"Tyrosine-protein kinase ABL1, phosphorylated (ABL1, Homo sapiens, UniProt P00519, M351T)",51
"CDKL5 (Homo sapiens, UniProt O76039)",100
"PAK2 (Homo sapiens, UniProt Q13177)",52
"ROCK1 (Homo sapiens, UniProt Q13464)",100
"Ribosomal protein S6 kinase alpha-2, C-terminal kinase domain (RPS6KA2, Homo sapiens, UniProt Q15349)",94
"PIK3C2B (Homo sapiens, UniProt O00750)",96
"BRSK1 (Homo sapiens, UniProt Q8TDC3)",100
"Ribosomal protein S6 kinase alpha-3, N-terminal kinase domain (RPS6KA3, Homo sapiens, UniProt P51812)",84
"SGK3 (Homo sapiens, UniProt Q96BR1)",97
"MAP2K7 (Homo sapiens, UniProt O14733)",100
"CIT (Homo sapiens, UniProt O14578)",91
"SRPK2 (Homo sapiens, UniProt P78362)",100
"PLK2 (Homo sapiens, UniProt Q9NYY3)",100
"Tyrosine-protein kinase ABL1, phosphorylated (ABL1, Homo sapiens, UniProt P00519, Q252H)",88
"MAP2K2 (Homo sapiens, UniProt P36507)",100
"TNIK (Homo sapiens, UniProt Q9UKE5)",100
"NEK11 (Homo sapiens, UniProt Q8NG66)",100
"STK38 (Homo sapiens, UniProt Q15208)",99

# Sample 2
# Target: DNA polymerase theta, ATPase domain (POLQ, Homo sapiens, UniProt O75417)
# Sequence of UniProt O75417 (whole entry, unmodified, looked up): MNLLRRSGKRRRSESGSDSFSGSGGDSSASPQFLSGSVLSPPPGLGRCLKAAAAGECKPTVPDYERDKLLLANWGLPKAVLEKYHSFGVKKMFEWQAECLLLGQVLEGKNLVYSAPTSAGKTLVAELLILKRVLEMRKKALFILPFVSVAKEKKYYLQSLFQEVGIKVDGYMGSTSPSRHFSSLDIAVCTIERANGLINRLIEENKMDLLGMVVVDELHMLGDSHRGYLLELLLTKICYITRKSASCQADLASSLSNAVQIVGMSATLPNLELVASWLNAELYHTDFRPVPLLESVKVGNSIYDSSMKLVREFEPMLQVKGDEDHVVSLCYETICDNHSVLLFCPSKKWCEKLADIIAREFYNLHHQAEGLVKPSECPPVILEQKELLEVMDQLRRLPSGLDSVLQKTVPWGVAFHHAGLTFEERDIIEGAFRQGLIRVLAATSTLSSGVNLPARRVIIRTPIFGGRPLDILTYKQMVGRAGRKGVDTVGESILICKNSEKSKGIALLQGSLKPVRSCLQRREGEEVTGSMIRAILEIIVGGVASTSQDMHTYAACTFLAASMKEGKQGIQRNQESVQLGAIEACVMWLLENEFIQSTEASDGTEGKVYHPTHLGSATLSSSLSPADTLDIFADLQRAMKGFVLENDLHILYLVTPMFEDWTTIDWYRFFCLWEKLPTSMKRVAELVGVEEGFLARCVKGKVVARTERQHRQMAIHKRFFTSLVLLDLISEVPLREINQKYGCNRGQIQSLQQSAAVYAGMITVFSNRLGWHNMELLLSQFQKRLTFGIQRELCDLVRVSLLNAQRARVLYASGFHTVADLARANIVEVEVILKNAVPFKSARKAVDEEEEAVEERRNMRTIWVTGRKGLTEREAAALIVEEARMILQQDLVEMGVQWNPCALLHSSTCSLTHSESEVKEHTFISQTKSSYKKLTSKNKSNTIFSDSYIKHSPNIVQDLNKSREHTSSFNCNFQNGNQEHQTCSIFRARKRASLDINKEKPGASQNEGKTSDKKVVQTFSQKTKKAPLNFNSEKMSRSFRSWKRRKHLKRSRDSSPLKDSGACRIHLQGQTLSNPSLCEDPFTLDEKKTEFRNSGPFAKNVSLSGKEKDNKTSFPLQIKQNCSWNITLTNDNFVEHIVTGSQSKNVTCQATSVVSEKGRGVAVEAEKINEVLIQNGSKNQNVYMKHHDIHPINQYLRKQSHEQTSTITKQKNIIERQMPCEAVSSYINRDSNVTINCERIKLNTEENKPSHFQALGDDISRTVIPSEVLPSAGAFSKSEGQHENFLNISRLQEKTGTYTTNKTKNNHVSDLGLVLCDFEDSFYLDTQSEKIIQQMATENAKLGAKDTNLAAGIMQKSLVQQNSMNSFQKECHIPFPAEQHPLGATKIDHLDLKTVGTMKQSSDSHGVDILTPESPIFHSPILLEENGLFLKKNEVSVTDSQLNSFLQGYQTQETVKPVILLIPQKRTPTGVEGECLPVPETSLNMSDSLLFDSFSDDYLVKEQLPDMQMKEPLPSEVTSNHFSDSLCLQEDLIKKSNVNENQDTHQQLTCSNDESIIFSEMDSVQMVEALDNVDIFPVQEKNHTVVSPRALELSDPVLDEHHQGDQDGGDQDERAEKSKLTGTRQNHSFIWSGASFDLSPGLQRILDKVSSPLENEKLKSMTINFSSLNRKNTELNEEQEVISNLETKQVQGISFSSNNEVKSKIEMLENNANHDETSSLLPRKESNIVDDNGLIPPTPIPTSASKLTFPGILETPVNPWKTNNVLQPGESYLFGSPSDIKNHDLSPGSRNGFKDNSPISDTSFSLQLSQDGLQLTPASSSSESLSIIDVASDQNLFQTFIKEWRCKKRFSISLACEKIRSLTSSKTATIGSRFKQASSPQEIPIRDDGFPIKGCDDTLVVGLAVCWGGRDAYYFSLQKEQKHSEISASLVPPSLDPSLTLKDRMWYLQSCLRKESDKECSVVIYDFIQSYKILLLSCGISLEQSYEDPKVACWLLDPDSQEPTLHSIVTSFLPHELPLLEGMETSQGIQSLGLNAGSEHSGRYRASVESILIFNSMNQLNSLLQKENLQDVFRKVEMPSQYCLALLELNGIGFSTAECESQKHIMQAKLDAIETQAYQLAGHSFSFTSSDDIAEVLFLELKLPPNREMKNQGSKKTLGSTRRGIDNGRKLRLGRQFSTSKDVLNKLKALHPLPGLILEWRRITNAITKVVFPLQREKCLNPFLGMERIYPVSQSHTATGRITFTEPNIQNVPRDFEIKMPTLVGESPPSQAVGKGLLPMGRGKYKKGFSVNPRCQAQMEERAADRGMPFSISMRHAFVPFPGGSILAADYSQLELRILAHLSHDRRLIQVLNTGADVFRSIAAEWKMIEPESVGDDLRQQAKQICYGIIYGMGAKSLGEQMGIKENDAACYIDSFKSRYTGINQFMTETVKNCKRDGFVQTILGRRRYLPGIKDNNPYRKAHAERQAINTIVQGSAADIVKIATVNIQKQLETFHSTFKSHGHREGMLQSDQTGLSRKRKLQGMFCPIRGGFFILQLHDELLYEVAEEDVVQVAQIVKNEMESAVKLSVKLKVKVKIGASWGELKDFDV
# Observed: enzyme activity
# Action: inhibitor
# Concentration: 77 µM
# Reference: untreated
SMILES,remaining activity
CN1C(C)(C)CCCC1(C)C,102%
Nc1ncnc2c1ncn2C1CCCO1 (stereo not shown),92%
Cc1cc(Nc2cc(CN3CCOCC3)c3nc(C)c(Cc4ccc(Cl)cc4F)n3n2)n[nH]1,97.6%
C=CCNC1=C2C[C@@H](C)C[C@H](OC)[C@H](O)[C@@H](C)/C=C(\C)[C@H](OC(N)=O)[C@@H](OC)/C=C\C=C(/C)C(=O)NC(=CC1=O)C2=O,89.9%
CNC(=O)CN1CCC(Oc2cc3c(Nc4cccc(Cl)c4F)ncnc3cc2OC)CC1,96.7%
N#C[C@@H]1CCCN1C(=O)CNC12CC3CC(CC(O)(C3)C1)C2,104%
Nc1nc(=O)[nH]cc1F,104% and 102%
CC[C@]1(O)C[C@@H]2CN(CCc3c([nH]c4ccccc34)[C@@](C(=O)OC)(c3cc4c(cc3OC)N(C)[C@H]3[C@@](O)(C(=O)OC)[C@H](OC(C)=O)[C@]5(CC)C=CCN6CC[C@]43[C@@H]65)C2)C1,98.6%
Cc1noc(-c2ccc(CSCCC(=O)O)cc2)c1NC(=O)OC(C)c1ccccc1Cl (stereo not shown),96.9%

# Sample 3
# Species: mouse
# Medium: microsomes or S9
# Concentration: 2 µM
# Time: 0.5 h
Compound,remaining compound
COc1cc(OC)nc(Oc2ccc(OC(C)C(=O)O)cc2)n1 (stereo not shown),60.2%
CS(=O)(=O)N1CCCC1C(=O)Nc1nc2cc3c(cc2s1)OCO3 (stereo not shown),0.00485%
COc1cc(C2c3c(-c4ccccc4)nn(C)c3C(=O)N2Cc2ccco2)cc(OC)c1O (stereo not shown),17.4%
Fc1ccc(-n2cc(C3CCCCN3)nn2)cc1Cl (stereo not shown),76.2%
O=C(NCCc1ccccc1)Nc1cnc(O)nc1O,90.2%
CS(=O)(=O)N(Cc1ccco1)Cc1ccc(C(=O)O)o1,79.6%
COc1cc(=O)n(C)cc1C(=O)N1CCN(S(=O)(=O)C2CC2)CC1,72.9%
Cc1ccc(Cl)cc1N1CCN(C(=O)C2CCCN(S(=O)(=O)c3ccccc3)C2)CC1 (stereo not shown),21.3%
c1ccc(C(CNc2ccc3nnnn3n2)c2c[nH]c3ccccc23)cc1 (stereo not shown),2.96%
Oc1cc(-c2cccc(-c3ccc4c(c3)OCO4)c2)nn1-c1ccccn1,15%
CC1(C)CCN(C(=O)c2cc(C#N)cs2)c2cc(Br)ccc21,56.9%
CCc1cccc(N2C(=O)Nc3ccccc3N2O)c1,69.3%
Brc1ccc2c(c1)C1CC(c3ccco3)=NN1C(c1ccncc1)O2 (stereo not shown),25%
CCOC(=O)C1(Cc2ccccc2)Nc2ccccc2C1=O (stereo not shown),1.72%
Cc1nc2c(NC3CCN(S(=O)(=O)C4CC4)CC3)cccn2n1,8.26%
COC(C(=O)Nc1ccc(S(=O)(=O)Nc2cccc(Cl)c2Cl)cc1)c1ccccc1 (stereo not shown),15%
Cc1ccccc1-c1nc2ccccc2cc1C(C)Nc1ncnc(Cl)c1N (stereo not shown),31.6%
COc1ccnc(Cn2cnc(Cl)c2Cl)c1OC,9.59%
O=C(Cn1cc(-c2ccccc2)ncc1=O)NCCn1ccc2ccc(Br)cc21,3.62%

# Sample 4
# Target: ALK tyrosine kinase receptor (ALK, Homo sapiens, UniProt Q9UM73)
# Sequence of UniProt Q9UM73 (whole entry, looked up): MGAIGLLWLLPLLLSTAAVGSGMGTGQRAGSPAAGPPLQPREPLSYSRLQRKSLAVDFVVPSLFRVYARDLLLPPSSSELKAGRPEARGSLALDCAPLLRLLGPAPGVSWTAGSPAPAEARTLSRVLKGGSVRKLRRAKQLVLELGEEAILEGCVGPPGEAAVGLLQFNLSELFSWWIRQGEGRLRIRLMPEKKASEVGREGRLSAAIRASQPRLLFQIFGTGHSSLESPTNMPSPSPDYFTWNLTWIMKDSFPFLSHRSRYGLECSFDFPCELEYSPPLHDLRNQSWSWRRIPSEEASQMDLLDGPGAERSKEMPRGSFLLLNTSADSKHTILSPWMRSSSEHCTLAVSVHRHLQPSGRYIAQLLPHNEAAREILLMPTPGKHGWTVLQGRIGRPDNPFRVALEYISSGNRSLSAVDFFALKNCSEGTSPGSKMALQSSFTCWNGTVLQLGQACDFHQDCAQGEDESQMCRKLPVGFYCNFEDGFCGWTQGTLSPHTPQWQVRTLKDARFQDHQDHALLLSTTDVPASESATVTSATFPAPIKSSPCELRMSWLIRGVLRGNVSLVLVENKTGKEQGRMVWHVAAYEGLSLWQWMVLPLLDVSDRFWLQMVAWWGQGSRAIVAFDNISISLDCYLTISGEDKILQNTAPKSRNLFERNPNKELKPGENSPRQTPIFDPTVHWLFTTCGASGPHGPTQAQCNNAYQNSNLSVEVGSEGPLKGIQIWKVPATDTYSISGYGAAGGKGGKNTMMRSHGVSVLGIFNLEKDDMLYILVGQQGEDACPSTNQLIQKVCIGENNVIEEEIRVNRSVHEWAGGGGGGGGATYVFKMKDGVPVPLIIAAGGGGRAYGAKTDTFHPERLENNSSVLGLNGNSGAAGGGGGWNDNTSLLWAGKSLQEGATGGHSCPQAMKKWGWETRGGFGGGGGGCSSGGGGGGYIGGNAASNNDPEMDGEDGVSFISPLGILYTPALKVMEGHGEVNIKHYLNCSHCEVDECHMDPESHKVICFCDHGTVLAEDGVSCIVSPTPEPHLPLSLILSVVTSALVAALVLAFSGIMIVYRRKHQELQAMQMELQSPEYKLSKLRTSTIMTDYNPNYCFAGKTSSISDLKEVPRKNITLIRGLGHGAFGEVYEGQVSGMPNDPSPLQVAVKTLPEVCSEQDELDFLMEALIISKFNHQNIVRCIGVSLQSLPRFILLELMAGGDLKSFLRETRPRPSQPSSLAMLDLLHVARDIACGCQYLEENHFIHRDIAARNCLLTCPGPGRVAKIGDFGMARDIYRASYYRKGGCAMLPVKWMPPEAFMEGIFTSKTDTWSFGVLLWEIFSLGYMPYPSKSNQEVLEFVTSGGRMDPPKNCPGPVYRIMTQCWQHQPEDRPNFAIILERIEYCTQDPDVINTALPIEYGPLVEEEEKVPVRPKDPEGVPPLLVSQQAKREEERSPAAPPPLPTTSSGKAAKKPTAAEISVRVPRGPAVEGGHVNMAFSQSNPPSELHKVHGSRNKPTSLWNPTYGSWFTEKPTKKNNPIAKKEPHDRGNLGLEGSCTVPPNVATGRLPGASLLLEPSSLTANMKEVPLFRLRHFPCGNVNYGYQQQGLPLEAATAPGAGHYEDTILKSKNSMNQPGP
# Observed: enzyme activity
# Action: inhibitor
# Concentration: 0.5 µM
# Reference: control
SMILES,remaining activity
CSc1nc(-c2ccnc(N[C@@H](C)c3ccccc3)c2)c(-c2ccc(F)cc2)[nH]1 (racemic),93.3%
Fc1ccc(-c2nc3n(c2-c2ccncc2)CCS3)cc1,124%
Cc1cc(Nc2nc(-c3ccccc3)nc3ccccc23)n[nH]1,75.9%
COc1ccc(S(=O)(=O)N(CCO)c2ccccc2CN(C)CC=Cc2ccc(Cl)cc2)cc1,98.1%
CCc1[nH]c(-c2ccc(OC)cc2)nc1-c1ccncc1,106%
COc1cc(Nc2c(C#N)cnc3cc(OCCCN4CCN(C)CC4)c(OC)cc23)c(Cl)cc1Cl,66%
Oc1ccc(Nc2nc(-c3ccc(Cl)cc3)cs2)cc1,111%
CC[n+]1c(/C=C/N(C)c2ccccc2)n(-c2ccccc2)c2ccc(-c3nc4ccccc4s3)cc21,99.1%
O=C1NC(=O)C(c2c[nH]c3ccccc23)=C1c1c[nH]c2ccccc12,95.7%
CC(C)(C)n1nc(Cc2cccc3ccccc23)c2c(N)ncnc21,91.9%
O=C1Cc2c([nH]c3ccc([N+](=O)[O-])cc23)-c2ccccc2N1,94.2%
Nc1nc(Nc2ccc(S(N)(=O)=O)cc2)nn1C(=O)c1c(F)cccc1F,90.1%
O=S(=O)(NCCNC/C=C/c1ccc(Br)cc1)c1cccc2cnccc12,101%
NC(=O)c1ccc(N(C(N)=O)c2c(F)cccc2F)nc1-c1ccc(F)cc1F,99.6%
Cc1ccc(NC2=CC(=O)c3sc(C)nc3C2=O)cc1,105%
CCCC(=O)Oc1ccc2[nH]c(C(=O)c3cc4ccccc4[nH]3)cc2c1,83.7%
Nc1ncnc2c1cnn2-c1ccccc1,90.9%
Cc1cncc2cccc(S(=O)(=O)N3CCCN(C(=O)CN)C[C@@H]3C)c12,113%
CC(=O)c1ccc(N2CCOCC2)cc1O,106%
N#CC(=C(N)Sc1ccc(N)cc1)c1ccccc1C(F)(F)F,100%
CC#CC(=O)Nc1cc2c(Nc3ccc(F)c(Cl)c3)ncnc2cn1,103%
Nc1nccc(-c2c(-c3ccc(F)cc3)ncn2C2CCNCC2)n1,102%

# Some of these lines once more (sample 1):
target,remaining binding [%]
"Ribosomal protein S6 kinase alpha-2, C-terminal kinase domain (RPS6KA2, Homo sapiens, UniProt Q15349)",94
"PIK3C2B (Homo sapiens, UniProt O00750)",96
"BRSK1 (Homo sapiens, UniProt Q8TDC3)",100
"Ribosomal protein S6 kinase alpha-3, N-terminal kinase domain (RPS6KA3, Homo sapiens, UniProt P51812)",84
"SGK3 (Homo sapiens, UniProt Q96BR1)",97
